{"data": "Measured values collected from several papers", "note": "Every numbered part comes from another study and shows a few of its results, in no order. Several values in a cell are separate wells, animals, samples, runs or records.", "sequence of UniProt Q9NR20 (whole entry, looked up)": "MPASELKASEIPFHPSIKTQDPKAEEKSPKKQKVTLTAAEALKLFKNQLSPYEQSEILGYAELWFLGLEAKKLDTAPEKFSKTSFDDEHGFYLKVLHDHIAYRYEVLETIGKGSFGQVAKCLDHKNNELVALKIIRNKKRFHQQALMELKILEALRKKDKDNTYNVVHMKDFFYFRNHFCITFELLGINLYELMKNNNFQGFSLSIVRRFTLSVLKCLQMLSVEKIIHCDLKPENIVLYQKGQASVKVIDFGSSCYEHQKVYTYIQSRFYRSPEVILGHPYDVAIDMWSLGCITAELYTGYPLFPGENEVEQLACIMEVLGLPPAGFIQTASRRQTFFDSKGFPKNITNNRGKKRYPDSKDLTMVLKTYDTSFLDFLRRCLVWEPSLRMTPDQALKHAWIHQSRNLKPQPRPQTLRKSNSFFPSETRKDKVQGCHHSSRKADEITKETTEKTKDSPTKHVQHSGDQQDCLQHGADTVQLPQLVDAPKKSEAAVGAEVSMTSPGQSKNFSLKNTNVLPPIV", "sequence of UniProt Q13177 (whole entry, looked up)": "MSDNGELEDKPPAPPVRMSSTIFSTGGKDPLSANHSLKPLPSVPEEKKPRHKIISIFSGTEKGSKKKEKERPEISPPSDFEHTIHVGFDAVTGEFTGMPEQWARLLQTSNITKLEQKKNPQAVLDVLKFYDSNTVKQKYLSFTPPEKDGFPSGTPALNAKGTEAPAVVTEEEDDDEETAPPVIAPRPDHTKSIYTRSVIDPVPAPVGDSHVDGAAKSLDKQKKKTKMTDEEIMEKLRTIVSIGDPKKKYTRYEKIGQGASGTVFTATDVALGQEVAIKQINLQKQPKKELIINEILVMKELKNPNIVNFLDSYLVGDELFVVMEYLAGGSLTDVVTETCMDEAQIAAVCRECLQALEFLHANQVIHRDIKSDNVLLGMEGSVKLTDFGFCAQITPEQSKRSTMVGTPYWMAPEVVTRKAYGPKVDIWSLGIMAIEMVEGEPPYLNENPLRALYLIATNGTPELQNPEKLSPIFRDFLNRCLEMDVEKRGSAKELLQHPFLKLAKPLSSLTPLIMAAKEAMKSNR", "sequence of UniProt P08581 (whole entry, looked up)": "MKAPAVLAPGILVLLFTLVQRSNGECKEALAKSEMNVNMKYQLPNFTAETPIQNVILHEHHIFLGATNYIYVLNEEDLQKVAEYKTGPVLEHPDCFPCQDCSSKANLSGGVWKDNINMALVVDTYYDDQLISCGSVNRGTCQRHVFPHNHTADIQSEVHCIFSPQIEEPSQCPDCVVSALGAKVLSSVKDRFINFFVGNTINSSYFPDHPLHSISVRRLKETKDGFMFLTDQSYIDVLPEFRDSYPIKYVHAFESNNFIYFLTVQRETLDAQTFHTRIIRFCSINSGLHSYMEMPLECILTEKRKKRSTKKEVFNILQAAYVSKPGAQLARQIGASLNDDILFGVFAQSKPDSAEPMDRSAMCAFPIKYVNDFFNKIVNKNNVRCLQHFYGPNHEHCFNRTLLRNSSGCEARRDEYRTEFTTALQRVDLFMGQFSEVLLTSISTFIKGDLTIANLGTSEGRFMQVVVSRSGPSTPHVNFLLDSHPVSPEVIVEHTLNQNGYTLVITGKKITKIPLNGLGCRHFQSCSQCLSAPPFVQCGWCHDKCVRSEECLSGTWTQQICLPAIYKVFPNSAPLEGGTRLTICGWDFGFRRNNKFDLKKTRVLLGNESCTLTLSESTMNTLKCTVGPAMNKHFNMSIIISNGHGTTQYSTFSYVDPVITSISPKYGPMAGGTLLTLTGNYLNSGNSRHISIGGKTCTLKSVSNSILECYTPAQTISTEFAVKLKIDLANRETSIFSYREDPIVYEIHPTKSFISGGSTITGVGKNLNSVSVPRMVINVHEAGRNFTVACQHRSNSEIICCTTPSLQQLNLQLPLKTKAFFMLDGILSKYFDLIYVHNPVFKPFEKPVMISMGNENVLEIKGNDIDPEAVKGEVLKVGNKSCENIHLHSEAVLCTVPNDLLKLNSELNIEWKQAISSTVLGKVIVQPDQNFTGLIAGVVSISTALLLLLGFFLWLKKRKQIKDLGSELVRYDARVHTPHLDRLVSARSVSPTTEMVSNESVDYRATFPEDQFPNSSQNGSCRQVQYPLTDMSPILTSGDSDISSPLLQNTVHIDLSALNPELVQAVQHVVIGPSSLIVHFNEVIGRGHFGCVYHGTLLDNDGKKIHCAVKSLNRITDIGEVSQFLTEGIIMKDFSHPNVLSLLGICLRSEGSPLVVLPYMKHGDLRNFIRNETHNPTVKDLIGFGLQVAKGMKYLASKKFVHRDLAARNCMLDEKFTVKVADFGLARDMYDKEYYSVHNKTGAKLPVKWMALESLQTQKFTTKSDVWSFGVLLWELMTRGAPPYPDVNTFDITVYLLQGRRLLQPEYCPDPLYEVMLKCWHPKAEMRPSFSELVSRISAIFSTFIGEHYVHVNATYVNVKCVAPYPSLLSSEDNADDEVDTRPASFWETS", "sequence of UniProt Q9H422 (whole entry, looked up)": "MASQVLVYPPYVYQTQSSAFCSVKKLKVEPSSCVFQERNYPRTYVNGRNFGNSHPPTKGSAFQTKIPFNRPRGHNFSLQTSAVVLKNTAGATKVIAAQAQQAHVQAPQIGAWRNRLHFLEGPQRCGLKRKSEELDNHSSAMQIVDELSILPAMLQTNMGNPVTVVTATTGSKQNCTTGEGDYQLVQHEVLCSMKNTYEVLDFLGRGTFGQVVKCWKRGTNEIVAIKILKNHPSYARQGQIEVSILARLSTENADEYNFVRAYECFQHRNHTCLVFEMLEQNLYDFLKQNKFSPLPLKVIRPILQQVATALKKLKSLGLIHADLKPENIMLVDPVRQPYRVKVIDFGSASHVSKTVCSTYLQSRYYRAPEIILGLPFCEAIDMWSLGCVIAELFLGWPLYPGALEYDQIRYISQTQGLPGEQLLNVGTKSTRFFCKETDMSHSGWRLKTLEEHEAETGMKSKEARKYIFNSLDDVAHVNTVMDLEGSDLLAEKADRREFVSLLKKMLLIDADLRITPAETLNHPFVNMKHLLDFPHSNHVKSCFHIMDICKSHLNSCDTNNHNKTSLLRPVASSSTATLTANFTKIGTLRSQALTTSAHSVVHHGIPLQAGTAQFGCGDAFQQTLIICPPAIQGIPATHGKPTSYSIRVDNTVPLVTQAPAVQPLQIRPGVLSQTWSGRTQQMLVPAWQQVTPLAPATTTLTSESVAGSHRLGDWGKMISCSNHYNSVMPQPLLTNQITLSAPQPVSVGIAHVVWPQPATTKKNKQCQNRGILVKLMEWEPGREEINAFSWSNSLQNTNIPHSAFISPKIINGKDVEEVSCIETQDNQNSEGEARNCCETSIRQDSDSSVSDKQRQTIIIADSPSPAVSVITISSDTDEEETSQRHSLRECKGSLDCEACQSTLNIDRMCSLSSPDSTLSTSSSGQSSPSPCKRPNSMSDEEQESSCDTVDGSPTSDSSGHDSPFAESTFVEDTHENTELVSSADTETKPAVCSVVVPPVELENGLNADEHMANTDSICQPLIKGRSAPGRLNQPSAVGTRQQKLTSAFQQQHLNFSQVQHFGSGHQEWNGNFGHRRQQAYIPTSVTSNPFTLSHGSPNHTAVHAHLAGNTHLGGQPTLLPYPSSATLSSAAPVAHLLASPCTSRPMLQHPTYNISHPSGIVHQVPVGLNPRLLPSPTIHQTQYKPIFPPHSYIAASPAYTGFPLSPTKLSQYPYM", "sequence of UniProt Q9H2G2 (whole entry, looked up)": "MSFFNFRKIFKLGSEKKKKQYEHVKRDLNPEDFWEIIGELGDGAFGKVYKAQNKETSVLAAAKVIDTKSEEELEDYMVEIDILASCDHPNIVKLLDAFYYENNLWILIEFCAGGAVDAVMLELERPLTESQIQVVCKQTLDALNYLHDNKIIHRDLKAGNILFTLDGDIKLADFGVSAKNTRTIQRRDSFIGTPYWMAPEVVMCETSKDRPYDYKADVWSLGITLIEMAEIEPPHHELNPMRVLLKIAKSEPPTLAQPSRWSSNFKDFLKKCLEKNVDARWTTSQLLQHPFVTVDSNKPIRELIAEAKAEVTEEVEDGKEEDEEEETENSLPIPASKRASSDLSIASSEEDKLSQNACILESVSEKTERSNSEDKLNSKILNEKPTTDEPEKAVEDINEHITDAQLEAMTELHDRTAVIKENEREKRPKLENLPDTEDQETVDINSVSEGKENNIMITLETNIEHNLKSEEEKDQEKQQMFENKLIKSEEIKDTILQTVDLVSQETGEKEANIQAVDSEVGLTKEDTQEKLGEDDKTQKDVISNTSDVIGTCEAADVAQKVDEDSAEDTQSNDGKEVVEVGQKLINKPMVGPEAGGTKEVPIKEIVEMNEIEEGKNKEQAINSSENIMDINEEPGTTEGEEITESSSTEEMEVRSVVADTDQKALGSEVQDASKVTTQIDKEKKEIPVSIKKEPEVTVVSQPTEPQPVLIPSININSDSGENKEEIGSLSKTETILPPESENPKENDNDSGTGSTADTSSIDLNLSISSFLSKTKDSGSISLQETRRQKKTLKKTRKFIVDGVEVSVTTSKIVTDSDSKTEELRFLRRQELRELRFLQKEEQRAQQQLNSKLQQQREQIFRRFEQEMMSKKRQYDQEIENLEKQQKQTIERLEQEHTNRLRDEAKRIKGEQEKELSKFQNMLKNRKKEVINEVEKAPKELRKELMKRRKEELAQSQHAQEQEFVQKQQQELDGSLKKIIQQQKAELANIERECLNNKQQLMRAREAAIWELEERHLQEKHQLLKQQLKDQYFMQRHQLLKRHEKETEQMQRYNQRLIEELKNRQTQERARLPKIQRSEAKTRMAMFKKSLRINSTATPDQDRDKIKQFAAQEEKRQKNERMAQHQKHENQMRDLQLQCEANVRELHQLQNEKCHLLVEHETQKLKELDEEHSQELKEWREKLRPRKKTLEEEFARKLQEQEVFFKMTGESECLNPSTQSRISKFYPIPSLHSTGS"}
{"data": "Set 1", "Compound": "N#Cc1ccc(Nc2ccc3[nH]c(=O)[nH]c3c2)c(Cl)c1", "observed": "cell-free assay", "technique": "competition with immobilised ligand", "tested at": "1 µM"}
{"target": "Ribosomal protein S6 kinase alpha-4, C-terminal kinase domain (RPS6KA4, Homo sapiens, UniProt O75676)", "remaining binding [%]": 95}
{"target": "Tyrosine-protein kinase ABL1, phosphorylated (ABL1, Homo sapiens, UniProt P00519, Q252H)", "remaining binding [%]": 100}
{"target": "Serine/threonine-protein kinase PAK 2 (PAK2, Homo sapiens, UniProt Q13177)", "remaining binding [%]": 79}
{"target": "Ribosomal protein S6 kinase alpha-2, C-terminal kinase domain (RPS6KA2, Homo sapiens, UniProt Q15349)", "remaining binding [%]": 100}
{"target": "Hepatocyte growth factor receptor (MET, Homo sapiens, UniProt P08581)", "remaining binding [%]": 94}
{"target": "Myosin light chain kinase, smooth muscle (MYLK, Homo sapiens, UniProt Q15746)", "remaining binding [%]": 96}
{"target": "Mast/stem cell growth factor receptor Kit (KIT, Homo sapiens, UniProt P10721, A829P)", "remaining binding [%]": 100}
{"data": "Set 2", "cell line": "mouse MPNST tumor cells", "technique": "high-content nuclear imaging", "item": "cell number", "tested at": "10 µM", "time": "12 h", "notes": "mean of 2 replicates", "relative to": "plate mean", "reading": "higher = more cells"}
{"Compound": "CC(C[N+](C)(C)C)OC(N)=O (stereo not shown)", "nuclei count": "1.43 z-score"}
{"Compound": "Cc1nc(Nc2cnn(C3CCNCC3)c2)nc2c1N(C)C(=O)c1cc3ccccc3cc1N2C", "nuclei count": "-3.38 z-score"}
{"Compound": "CC(C)c1ccc(Cn2ccc3c4c(N)nc(NC5CC5)nc4ccc32)cc1", "nuclei count": "-6.3 z-score"}
{"Compound": "NC(=O)c1ncn([C@@H]2O[C@H](CO)[C@@H](O)[C@H]2O)n1", "nuclei count": "-0.172 z-score and 0.442 z-score and 0.241 z-score"}
{"Compound": "Cn1cnc([N+](=O)[O-])c1Sc1ncnc2[nH]cnc12", "nuclei count": "-2.12 z-score and -2.18 z-score"}
{"Compound": "Cc1csc(S(=O)(=O)N(CC(C)C)c2cc3c(cc2OCc2ccc(C(=O)O)cc2)CCC3)n1", "nuclei count": "0.214 z-score"}
{"Compound": "CN(c1nccc(=O)[nH]1)C1CCN(c2nc3ccccc3n2Cc2ccc(F)cc2)CC1", "nuclei count": "1.51 z-score"}
{"Compound": "C=C1C(=O)O[C@H]2[C@H]1CC/C(C)=C/CC[C@@]1(C)O[C@@H]21", "nuclei count": "-3.23 z-score"}
{"Compound": "CC(C)(C)C(=O)C(Oc1ccc(Cl)cc1)n1ccnc1 (stereo not shown)", "nuclei count": "0.215 z-score"}
{"Compound": "CN1c2ccc([N+](=O)[O-])cc2N=C(c2ccc(C(=O)O)cc2)c2cc3c(cc21)C(C)(C)CCC3(C)C", "nuclei count": "2.98 z-score"}
{"Compound": "COc1ccc(S(=O)(=O)Nc2cccnc2Nc2ccc(O)cc2)cc1", "nuclei count": "-4.89 z-score"}
{"data": "Set 3", "SMILES": "O=C(Nc1ccc(Cl)cc1)c1ccccc1NCc1ccncc1", "observed": "enzyme activity", "mode": "inhibitor", "tested at": "0.5 µM", "relative to": "control"}
{"target": "Rho-associated protein kinase 2 (ROCK2, Homo sapiens, UniProt O75116)", "remaining activity": "93.8%"}
{"target": "NT-3 growth factor receptor (NTRK3, Homo sapiens, UniProt Q16288)", "remaining activity": "97%"}
{"target": "Serine/threonine-protein kinase BRSK1 (BRSK1, Homo sapiens, UniProt Q8TDC3)", "remaining activity": "94%"}
{"target": "Protein-tyrosine kinase 2-beta (PTK2B, Homo sapiens, UniProt Q14289)", "remaining activity": "89.3%"}
{"target": "Proto-oncogene tyrosine-protein kinase receptor Ret (RET, Homo sapiens, UniProt P07949)", "remaining activity": "58.9%"}
{"target": "Serine/threonine-protein kinase N2 (PKN2, Homo sapiens, UniProt Q16513)", "remaining activity": "93.2%"}
{"target": "Proto-oncogene tyrosine-protein kinase ROS (ROS1, Homo sapiens, UniProt P08922)", "remaining activity": "100%"}
{"target": "Cyclin-dependent kinase 7 (CDK7, Homo sapiens, UniProt P50613)", "remaining activity": "95.1%"}
{"target": "Homeodomain-interacting protein kinase 3 (HIPK3, Homo sapiens, UniProt Q9H422)", "remaining activity": "98.7%"}
{"target": "STE20-like serine/threonine-protein kinase (SLK, Homo sapiens, UniProt Q9H2G2)", "remaining activity": "86.6%"}
{"target": "G protein-coupled receptor kinase 5 (GRK5, Homo sapiens, UniProt P34947)", "remaining activity": "97.3%"}
{"target": "Aurora kinase A (AURKA, Homo sapiens, UniProt O14965)", "remaining activity": "84.4%"}
{"target": "Calcium/calmodulin-dependent protein kinase type 1G (CAMK1G, Homo sapiens, UniProt Q96NX5)", "remaining activity": "101%"}
{"target": "Serine/threonine-protein kinase D1 (PRKD1, Homo sapiens, UniProt Q15139)", "remaining activity": "93.2%"}
{"target": "Mitogen-activated protein kinase 10 (MAPK10, Homo sapiens, UniProt P53779)", "remaining activity": "89.9%"}
{"target": "Mitogen-activated protein kinase kinase kinase 2 (MAP3K2, Homo sapiens, UniProt Q9Y2U5)", "remaining activity": "92.8%"}
{"target": "Casein kinase II subunit alpha' (CSNK2A2, Homo sapiens, UniProt P19784)", "remaining activity": "98.3%"}
{"target": "Dual specificity tyrosine-phosphorylation-regulated kinase 4 (DYRK4, Homo sapiens, UniProt Q9NR20)", "remaining activity": "104%"}
{"target": "Cyclin-dependent kinase 2, with cyclin A (CDK2, Homo sapiens, UniProt P24941)", "remaining activity": "92.2%"}
{"target": "Mitogen-activated protein kinase kinase kinase 8 (MAP3K8, Homo sapiens, UniProt P41279)", "remaining activity": "105%"}
{"target": "Myotonin-protein kinase (DMPK, Homo sapiens, UniProt Q09013)", "remaining activity": "103%"}
{"data": "Set 4", "organism": "Sarcocystis neurona", "observed": "parasite growth", "tested at": "10 µM", "relative to": "untreated"}
{"Compound": "O=c1[nH]c(=O)n([C@H]2C[C@H](O)[C@@H](CO)O2)cc1F", "log2 fold change": -0.96}
{"Compound": "CC1(C)C[C@@H]1C(=O)N/C(=C\\CCCCSC[C@H](N)C(=O)O)C(=O)[O-].[Na+]", "log2 fold change": 0.35}
{"Compound": "CNCCC(Oc1ccc(C(F)(F)F)cc1)c1ccccc1.Cl (stereo not shown)", "log2 fold change": 0.28}
{"Compound": "C[N+]1(C)CCC(OC(=O)C(O)(c2ccccc2)C2CCCC2)C1.[Br-] (stereo not shown)", "log2 fold change": -0.03}
{"Compound": "C[C@]12CCC(=O)C=C1CC[C@@H]1[C@@H]2C(=O)C[C@@]2(C)[C@H]1CC[C@]2(O)C(=O)CO", "log2 fold change": -0.0554}
{"Compound": "Nc1ccc2cn[nH]c2c1", "log2 fold change": 0.32}
{"Compound": "CC(C)c1ccc2c(c1)c(SC(C)(C)C)c(CC(C)(C)C(=O)O)n2Cc1ccc(Cl)cc1", "log2 fold change": -0.12}
{"Compound": "Cc1cccc(CN2CCN(C(c3ccccc3)c3ccc(Cl)cc3)CC2)c1.Cl.Cl (stereo not shown)", "log2 fold change": 0.21}
{"Compound": "CC1CCN(CCCC(=O)c2ccc(F)cc2)CC1.Cl", "log2 fold change": 0.26}
{"Compound": "COc1ccc(CN2CCN(C(c3ccc(F)cc3)c3ccc(F)cc3)CC2)c(OC)c1OC.Cl.Cl", "log2 fold change": -0.66}
{"note": "Some of these lines once more (set 4):"}
{"Compound": "CC1(C)C[C@@H]1C(=O)N/C(=C\\CCCCSC[C@H](N)C(=O)O)C(=O)[O-].[Na+]", "log2 fold change": 0.35}
{"Compound": "CNCCC(Oc1ccc(C(F)(F)F)cc1)c1ccccc1.Cl (stereo not shown)", "log2 fold change": 0.28}
{"Compound": "C[N+]1(C)CCC(OC(=O)C(O)(c2ccccc2)C2CCCC2)C1.[Br-] (stereo not shown)", "log2 fold change": -0.03}
{"Compound": "C[C@]12CCC(=O)C=C1CC[C@@H]1[C@@H]2C(=O)C[C@@]2(C)[C@H]1CC[C@]2(O)C(=O)CO", "log2 fold change": -0.0554}
{"Compound": "Nc1ccc2cn[nH]c2c1", "log2 fold change": 0.32}
{"Compound": "CC(C)c1ccc2c(c1)c(SC(C)(C)C)c(CC(C)(C)C(=O)O)n2Cc1ccc(Cl)cc1", "log2 fold change": -0.12}
{"Compound": "Cc1cccc(CN2CCN(C(c3ccccc3)c3ccc(Cl)cc3)CC2)c1.Cl.Cl (stereo not shown)", "log2 fold change": 0.21}
